Published values gathered from unrelated publications.
Numbered parts are unrelated; each lists some results of a single study.
Chain of UniProt Q9HC98 (whole entry, looked up): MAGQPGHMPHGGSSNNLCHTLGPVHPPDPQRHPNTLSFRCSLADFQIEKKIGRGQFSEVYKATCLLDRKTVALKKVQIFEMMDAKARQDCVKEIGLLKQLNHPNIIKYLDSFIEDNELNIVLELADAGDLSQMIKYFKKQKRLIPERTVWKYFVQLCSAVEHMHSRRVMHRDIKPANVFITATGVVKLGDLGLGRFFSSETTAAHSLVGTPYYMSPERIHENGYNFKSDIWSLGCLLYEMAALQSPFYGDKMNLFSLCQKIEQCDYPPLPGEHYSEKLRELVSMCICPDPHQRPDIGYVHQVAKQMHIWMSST
Chain of UniProt O94804 (whole entry, looked up): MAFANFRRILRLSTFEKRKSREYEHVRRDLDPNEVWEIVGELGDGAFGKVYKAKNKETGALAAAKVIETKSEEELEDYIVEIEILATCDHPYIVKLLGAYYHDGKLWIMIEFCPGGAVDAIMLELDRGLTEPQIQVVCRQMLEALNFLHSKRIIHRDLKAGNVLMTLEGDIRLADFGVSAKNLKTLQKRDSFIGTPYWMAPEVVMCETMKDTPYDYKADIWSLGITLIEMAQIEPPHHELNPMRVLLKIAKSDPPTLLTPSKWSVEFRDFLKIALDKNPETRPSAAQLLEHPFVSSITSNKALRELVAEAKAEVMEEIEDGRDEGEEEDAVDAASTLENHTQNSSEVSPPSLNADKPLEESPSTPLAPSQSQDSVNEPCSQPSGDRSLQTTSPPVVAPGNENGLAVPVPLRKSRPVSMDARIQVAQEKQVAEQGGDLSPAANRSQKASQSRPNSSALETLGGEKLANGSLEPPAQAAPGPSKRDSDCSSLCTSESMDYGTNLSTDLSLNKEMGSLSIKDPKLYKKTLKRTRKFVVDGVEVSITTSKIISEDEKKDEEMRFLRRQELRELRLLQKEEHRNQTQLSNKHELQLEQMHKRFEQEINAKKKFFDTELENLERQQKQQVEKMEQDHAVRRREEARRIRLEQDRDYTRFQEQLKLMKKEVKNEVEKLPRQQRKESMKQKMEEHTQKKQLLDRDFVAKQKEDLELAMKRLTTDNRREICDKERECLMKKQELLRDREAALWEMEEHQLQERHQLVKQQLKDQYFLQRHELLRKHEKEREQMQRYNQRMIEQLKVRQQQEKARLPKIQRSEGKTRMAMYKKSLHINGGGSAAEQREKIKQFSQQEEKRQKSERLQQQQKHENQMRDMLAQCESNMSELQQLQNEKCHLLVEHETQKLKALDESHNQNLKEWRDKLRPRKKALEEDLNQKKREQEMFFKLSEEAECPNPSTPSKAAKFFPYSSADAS
Chain of UniProt Q6PHR2 (whole entry, looked up): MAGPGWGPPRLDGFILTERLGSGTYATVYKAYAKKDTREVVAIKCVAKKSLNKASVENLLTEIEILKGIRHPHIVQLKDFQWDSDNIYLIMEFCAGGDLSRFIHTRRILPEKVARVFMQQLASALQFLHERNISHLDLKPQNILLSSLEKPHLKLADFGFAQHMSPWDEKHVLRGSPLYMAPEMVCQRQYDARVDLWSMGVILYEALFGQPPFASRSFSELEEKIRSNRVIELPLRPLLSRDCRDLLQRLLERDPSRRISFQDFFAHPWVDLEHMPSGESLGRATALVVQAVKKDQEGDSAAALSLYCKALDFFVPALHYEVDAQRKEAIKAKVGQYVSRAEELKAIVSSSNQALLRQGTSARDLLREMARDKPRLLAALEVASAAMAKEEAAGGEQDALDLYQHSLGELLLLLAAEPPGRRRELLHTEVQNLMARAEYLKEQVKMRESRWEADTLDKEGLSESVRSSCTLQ
Chain of UniProt Q9UHD2 (whole entry, looked up): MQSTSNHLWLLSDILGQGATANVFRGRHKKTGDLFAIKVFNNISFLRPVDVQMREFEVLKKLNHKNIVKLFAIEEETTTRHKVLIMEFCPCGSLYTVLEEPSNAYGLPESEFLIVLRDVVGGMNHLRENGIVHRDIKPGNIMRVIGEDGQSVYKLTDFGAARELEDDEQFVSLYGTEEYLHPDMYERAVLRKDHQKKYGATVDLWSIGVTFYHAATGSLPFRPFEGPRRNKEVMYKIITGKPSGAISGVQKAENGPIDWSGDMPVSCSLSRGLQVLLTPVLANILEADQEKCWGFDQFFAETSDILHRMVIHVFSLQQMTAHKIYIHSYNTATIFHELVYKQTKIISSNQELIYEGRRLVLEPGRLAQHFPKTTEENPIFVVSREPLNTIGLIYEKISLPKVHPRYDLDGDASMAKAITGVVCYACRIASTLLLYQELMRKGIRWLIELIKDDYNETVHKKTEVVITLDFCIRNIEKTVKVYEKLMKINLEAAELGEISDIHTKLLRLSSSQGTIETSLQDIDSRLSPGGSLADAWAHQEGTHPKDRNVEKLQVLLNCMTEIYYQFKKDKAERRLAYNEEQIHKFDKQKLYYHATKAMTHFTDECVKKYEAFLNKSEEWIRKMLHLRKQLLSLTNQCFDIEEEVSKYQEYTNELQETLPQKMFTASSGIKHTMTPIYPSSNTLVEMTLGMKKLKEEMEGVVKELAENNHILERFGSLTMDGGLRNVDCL
Chain of UniProt P08913 (whole entry, looked up): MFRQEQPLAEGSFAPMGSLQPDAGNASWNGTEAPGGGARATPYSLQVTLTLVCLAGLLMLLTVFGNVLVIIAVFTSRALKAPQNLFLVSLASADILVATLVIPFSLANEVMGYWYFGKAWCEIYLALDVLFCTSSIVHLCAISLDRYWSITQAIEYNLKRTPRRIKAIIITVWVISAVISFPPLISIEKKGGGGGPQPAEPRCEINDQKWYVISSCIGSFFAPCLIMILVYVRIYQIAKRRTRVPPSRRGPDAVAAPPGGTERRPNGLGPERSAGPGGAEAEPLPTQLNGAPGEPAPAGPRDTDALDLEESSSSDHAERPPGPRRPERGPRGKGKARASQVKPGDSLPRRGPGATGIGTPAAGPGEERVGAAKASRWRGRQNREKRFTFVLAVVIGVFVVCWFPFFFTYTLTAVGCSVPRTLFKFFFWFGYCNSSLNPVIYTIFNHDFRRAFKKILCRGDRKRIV
Chain of UniProt Q13237 (whole entry, looked up): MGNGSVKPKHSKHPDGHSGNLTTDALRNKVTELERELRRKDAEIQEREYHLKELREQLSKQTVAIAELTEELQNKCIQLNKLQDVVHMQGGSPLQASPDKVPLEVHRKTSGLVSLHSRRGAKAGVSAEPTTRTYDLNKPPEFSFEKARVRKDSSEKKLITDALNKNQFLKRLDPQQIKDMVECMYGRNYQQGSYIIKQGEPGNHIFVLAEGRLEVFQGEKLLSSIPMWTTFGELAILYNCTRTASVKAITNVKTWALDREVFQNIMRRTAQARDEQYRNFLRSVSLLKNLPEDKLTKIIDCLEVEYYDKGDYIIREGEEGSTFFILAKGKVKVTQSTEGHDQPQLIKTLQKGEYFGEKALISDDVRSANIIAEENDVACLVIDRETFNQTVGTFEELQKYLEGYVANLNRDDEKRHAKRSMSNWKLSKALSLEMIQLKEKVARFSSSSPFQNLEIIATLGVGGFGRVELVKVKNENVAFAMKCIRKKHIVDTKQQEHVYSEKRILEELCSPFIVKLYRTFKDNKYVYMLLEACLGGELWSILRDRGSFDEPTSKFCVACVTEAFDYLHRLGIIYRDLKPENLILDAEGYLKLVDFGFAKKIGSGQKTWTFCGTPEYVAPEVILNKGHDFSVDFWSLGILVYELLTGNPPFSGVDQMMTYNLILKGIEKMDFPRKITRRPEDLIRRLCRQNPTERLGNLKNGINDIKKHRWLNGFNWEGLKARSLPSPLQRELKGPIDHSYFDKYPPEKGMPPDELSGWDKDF
Chain of UniProt P78368 (whole entry, looked up): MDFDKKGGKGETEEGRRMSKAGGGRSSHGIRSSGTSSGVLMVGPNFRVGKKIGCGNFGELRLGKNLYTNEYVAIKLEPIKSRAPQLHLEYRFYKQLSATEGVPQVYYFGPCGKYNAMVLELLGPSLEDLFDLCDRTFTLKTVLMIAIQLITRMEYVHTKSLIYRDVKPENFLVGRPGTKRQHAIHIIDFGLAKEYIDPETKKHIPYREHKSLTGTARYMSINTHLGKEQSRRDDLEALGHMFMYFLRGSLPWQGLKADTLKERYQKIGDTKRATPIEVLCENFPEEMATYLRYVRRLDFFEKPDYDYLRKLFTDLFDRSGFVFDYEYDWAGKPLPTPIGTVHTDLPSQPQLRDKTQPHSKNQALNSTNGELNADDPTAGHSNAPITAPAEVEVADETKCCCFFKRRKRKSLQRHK
Chain of UniProt O95977 (whole entry, looked up): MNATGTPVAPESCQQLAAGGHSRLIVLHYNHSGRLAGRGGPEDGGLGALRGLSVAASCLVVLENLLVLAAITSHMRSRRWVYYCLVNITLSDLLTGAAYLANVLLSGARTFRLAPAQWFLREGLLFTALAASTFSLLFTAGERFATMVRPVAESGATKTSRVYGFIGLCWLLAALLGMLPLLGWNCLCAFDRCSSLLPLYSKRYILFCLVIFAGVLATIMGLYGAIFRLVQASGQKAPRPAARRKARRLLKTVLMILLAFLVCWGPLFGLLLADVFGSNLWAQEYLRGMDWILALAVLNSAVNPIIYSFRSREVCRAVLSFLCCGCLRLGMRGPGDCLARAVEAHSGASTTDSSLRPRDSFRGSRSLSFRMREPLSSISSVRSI
Chain of UniProt P28221 (whole entry, looked up): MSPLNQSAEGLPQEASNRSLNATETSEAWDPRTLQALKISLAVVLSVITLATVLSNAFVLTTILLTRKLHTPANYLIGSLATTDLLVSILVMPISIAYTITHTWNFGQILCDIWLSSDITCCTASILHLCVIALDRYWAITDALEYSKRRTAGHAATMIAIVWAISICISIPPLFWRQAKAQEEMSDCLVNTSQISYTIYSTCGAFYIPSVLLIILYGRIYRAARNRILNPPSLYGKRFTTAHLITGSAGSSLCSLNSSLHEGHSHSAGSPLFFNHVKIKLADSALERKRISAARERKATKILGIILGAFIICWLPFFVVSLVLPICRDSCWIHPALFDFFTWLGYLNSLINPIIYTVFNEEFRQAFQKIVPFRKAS

Sample 1 — cell line: A-375; tested at: 100 µM; time: 18 h
| SMILES | viability |
| --- | --- |
| CC1CNc2c(cccc2S(=O)(=O)N[C@@H](CCCNC(=N)N)C(=O)N2CC[C@@H](C)C[C@@H]2C(=O)O)C1 (some centres unmarked) | 79.7% |
| Clc1ccccc1CN1CCc2sccc2C1 | 43.3% |
| c1ccc2c(CC3=NCCN3)cccc2c1 | 77.4% |
| C[C@@H]1C[C@H]2[C@@H]3CCC4=CC(=O)C=C[C@]4(C)[C@@]3(Cl)[C@@H](O)C[C@]2(C)[C@@]1(OC(=O)c1ccco1)C(=O)CCl | 39.1% |
| CCC1(c2ccccc2)C(=O)NCNC1=O | 105% |
| COCCOC(=O)C1=C(C)NC(C)=C(C(=O)OC(C)C)C1c1cccc([N+](=O)[O-])c1 (centres unmarked) | 14.1% |
| CC(=O)OC(C)C(C)C(=O)OC[C@@]12[C@H]3C[C@]4(C)C(=CC[C@@H]5[C@@]6(C)CC[C@H](O[C@@H]7O[C@H](C(=O)O)[C@@H](O[C@@H]8O[C@H](CO)[C@@H](O)[C@H](O)[C@H]8O)[C@H](O)[C@H]7O[C@@H]7OC[C@@H](O)[C@H](O)[C@H]7O)[C@@](C)(CO)[C@@H]6CC[C@]54C)[C@@H]1CC(C)(C)[C@H](O3)[C@@H]2O (some centres unmarked) | 7.9% |
| C#C[C@]1(O)CC[C@H]2[C@@H]3CCc4cc(O)ccc4[C@H]3CC[C@@]21C | 16.7% |
| CC(C)(Oc1ccc(CCNC(=O)c2ccc(Cl)cc2)cc1)C(=O)O | 106% |
| CCC(=O)O[C@]1(C(=O)SCF)[C@H](C)C[C@H]2[C@@H]3C[C@H](F)C4=CC(=O)C=C[C@]4(C)[C@@]3(F)[C@@H](O)C[C@@]21C | 88% |
| COc1cc2nc(N3CCN(C(=O)C4CCCO4)CC3)nc(N)c2cc1OC (centres unmarked) | 57.9% |
| CCCC(=O)Nc1ccc(OCC(O)CNC(C)C)c(C(C)=O)c1 (centres unmarked) | 104% |

Sample 2 — effect on: β-arrestin recruitment; action: agonist; technique: PRESTO-Tango; tested at: 10 µM; reference: untreated
Structure (SMILES): N=C(N)NC(=O)c1cnn(-c2cccc3ncccc23)c1C1CC1
| target | fold over basal |
| --- | --- |
| CX3C chemokine receptor 1 (CX3CR1, Homo sapiens, UniProt P49238) | 1.01 |
| Sphingosine 1-phosphate receptor 4 (S1PR4, Homo sapiens, UniProt O95977) | 1.12 |
| Alpha-1D adrenergic receptor (ADRA1D, Homo sapiens, UniProt P25100) | 1.06 |
| Prostaglandin D2 receptor (PTGDR, Homo sapiens, UniProt Q13258) | 2.02 |
| Alpha-2A adrenergic receptor (ADRA2A, Homo sapiens, UniProt P08913) | 1.44 |
| G-protein coupled receptor 171 (GPR171, Homo sapiens, UniProt O14626) | 1.16 |
| 5-hydroxytryptamine receptor 1D (HTR1D, Homo sapiens, UniProt P28221) | 1.01 |
| Galanin receptor type 2 (GALR2, Homo sapiens, UniProt O43603) | 0.94 fold |
| C-C chemokine receptor type 2, isoform B (CCR2, Homo sapiens, UniProt P41597) | 0.94 |
| Neuropeptide Y receptor type 5 (NPY5R, Homo sapiens, UniProt Q15761) | 1.17 |
| Thromboxane A2 receptor (TBXA2R, Homo sapiens, UniProt P21731) | 1.08 fold |

Sample 3 — SMILES: COc1cc2ncnc(Nc3cccc(Cl)c3)c2cc1OC; effect on: enzyme activity; action: inhibitor; tested at: 0.5 µM; reference: control
| target | remaining activity [%] |
| --- | --- |
| Dual specificity mitogen-activated protein kinase kinase 2 (MAP2K2, Homo sapiens, UniProt P36507) | 102 |
| Tyrosine-protein kinase JAK3 (JAK3, Homo sapiens, UniProt P52333) | 91.6 |
| Casein kinase I isoform gamma-2 (CSNK1G2, Homo sapiens, UniProt P78368) | 97.1 |
| Angiopoietin-1 receptor (TEK, Homo sapiens, UniProt Q02763) | 88.6 |
| Glycogen synthase kinase-3 beta (GSK3B, Homo sapiens, UniProt P49841) | 98.7 |
| Serine/threonine-protein kinase ULK3 (ULK3, Homo sapiens, UniProt Q6PHR2) | 77.3 |
| Mitogen-activated protein kinase kinase kinase 14 (MAP3K14, Homo sapiens, UniProt Q99558) | 107 |
| Tyrosine-protein kinase FRK (FRK, Homo sapiens, UniProt P42685) | 81.1 |
| Serine/threonine-protein kinase ULK2 (ULK2, Homo sapiens, UniProt Q8IYT8) | 103 |
| Serine/threonine-protein kinase Nek1 (NEK1, Homo sapiens, UniProt Q96PY6) | 93.1 |
| Serine/threonine-protein kinase Nek6 (NEK6, Homo sapiens, UniProt Q9HC98) | 105 |
| Serine/threonine-protein kinase TBK1 (TBK1, Homo sapiens, UniProt Q9UHD2) | 78 |
| Fibroblast growth factor receptor 3 (FGFR3, Homo sapiens, UniProt P22607) | 88.5 |

Sample 4 — effect on: cell-free assay; technique: competition with immobilised ligand; tested at: 1 µM
Structure (SMILES): CCC(=O)N[C@@H]1CC[C@H](C(=O)N(C)c2ccc(-c3nc4ccccc4o3)cc2)C1
| target | remaining binding [%] |
| --- | --- |
| Tyrosine-protein kinase ABL1, non-phosphorylated (ABL1, Homo sapiens, UniProt P00519, H396P) | 46 |
| cGMP-dependent protein kinase 2 (PRKG2, Homo sapiens, UniProt Q13237) | 92 |
| Cyclin-dependent kinase 8 (CDK8, Homo sapiens, UniProt P49336) | 100 |
| Serine/threonine-protein kinase LATS2 (LATS2, Homo sapiens, UniProt Q9NRM7) | 69 |
| Serine/threonine-protein kinase Nek10 (NEK10, Homo sapiens, UniProt Q6ZWH5) | 100 |
| Vascular endothelial growth factor receptor 1 (FLT1, Homo sapiens, UniProt P17948) | 100 |
| Misshapen-like kinase 1 (MINK1, Homo sapiens, UniProt Q8N4C8) | 96 |
| Phosphatidylinositol 5-phosphate 4-kinase type-2 gamma (PIP4K2C, Homo sapiens, UniProt Q8TBX8) | 100 |
| Tyrosine-protein kinase Mer (MERTK, Homo sapiens, UniProt Q12866) | 100 |
| ALK tyrosine kinase receptor (ALK, Homo sapiens, UniProt Q9UM73, L1196M) | 100 |
| Serine/threonine-protein kinase 10 (STK10, Homo sapiens, UniProt O94804) | 89 |

Excerpt of the above (sample 1):
| SMILES | viability |
| --- | --- |
| COCCOC(=O)C1=C(C)NC(C)=C(C(=O)OC(C)C)C1c1cccc([N+](=O)[O-])c1 (centres unmarked) | 14.1% |
| CC(=O)OC(C)C(C)C(=O)OC[C@@]12[C@H]3C[C@]4(C)C(=CC[C@@H]5[C@@]6(C)CC[C@H](O[C@@H]7O[C@H](C(=O)O)[C@@H](O[C@@H]8O[C@H](CO)[C@@H](O)[C@H](O)[C@H]8O)[C@H](O)[C@H]7O[C@@H]7OC[C@@H](O)[C@H](O)[C@H]7O)[C@@](C)(CO)[C@@H]6CC[C@]54C)[C@@H]1CC(C)(C)[C@H](O3)[C@@H]2O (some centres unmarked) | 7.9% |
| C#C[C@]1(O)CC[C@H]2[C@@H]3CCc4cc(O)ccc4[C@H]3CC[C@@]21C | 16.7% |
| CC(C)(Oc1ccc(CCNC(=O)c2ccc(Cl)cc2)cc1)C(=O)O | 106% |
| CCC(=O)O[C@]1(C(=O)SCF)[C@H](C)C[C@H]2[C@@H]3C[C@H](F)C4=CC(=O)C=C[C@]4(C)[C@@]3(F)[C@@H](O)C[C@@]21C | 88% |
